Published values from different studies.
Protocols differ between the studies behind these lines. Numbers after ± are the reported error.
SLC47A1: Multidrug and toxin extrusion protein 1 (SLC47A1, Homo sapiens, UniProt Q96FL8)
UniProt Q96FL8, sequence (whole entry, looked up): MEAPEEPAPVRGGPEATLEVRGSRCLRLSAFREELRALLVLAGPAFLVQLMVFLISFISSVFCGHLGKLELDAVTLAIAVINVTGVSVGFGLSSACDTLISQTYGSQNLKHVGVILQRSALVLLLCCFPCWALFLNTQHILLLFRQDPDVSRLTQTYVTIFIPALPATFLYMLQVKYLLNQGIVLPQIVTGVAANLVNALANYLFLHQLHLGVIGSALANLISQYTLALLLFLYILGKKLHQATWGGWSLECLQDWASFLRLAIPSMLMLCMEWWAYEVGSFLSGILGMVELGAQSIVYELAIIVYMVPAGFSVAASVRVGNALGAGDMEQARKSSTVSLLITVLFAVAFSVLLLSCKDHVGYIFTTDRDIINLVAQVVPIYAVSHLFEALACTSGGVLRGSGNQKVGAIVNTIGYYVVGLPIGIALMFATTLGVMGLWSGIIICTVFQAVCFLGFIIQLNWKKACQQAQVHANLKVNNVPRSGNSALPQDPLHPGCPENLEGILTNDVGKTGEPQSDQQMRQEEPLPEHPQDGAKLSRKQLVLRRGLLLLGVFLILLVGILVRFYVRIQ
CYP2D6: Cytochrome P450 2D6 (CYP2D6, Homo sapiens, UniProt P10635)
UniProt P10635, sequence (whole entry, looked up): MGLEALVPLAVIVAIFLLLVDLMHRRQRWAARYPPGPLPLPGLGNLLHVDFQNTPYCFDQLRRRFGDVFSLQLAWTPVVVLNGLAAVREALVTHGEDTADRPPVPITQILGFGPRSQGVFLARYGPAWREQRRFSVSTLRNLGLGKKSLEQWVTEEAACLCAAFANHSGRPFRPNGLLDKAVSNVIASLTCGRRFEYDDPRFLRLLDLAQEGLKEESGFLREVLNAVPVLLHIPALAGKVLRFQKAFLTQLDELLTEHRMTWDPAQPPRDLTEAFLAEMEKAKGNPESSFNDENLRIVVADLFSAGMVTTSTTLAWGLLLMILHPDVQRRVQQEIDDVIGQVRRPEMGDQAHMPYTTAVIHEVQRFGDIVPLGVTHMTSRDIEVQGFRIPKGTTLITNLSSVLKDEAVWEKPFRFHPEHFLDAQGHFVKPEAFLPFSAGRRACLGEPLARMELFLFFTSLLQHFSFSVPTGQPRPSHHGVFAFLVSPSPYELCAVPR
KCNH2: Voltage-gated inwardly rectifying potassium channel KCNH2 (KCNH2, Homo sapiens, UniProt Q12809)
UniProt Q12809, sequence (whole entry, looked up): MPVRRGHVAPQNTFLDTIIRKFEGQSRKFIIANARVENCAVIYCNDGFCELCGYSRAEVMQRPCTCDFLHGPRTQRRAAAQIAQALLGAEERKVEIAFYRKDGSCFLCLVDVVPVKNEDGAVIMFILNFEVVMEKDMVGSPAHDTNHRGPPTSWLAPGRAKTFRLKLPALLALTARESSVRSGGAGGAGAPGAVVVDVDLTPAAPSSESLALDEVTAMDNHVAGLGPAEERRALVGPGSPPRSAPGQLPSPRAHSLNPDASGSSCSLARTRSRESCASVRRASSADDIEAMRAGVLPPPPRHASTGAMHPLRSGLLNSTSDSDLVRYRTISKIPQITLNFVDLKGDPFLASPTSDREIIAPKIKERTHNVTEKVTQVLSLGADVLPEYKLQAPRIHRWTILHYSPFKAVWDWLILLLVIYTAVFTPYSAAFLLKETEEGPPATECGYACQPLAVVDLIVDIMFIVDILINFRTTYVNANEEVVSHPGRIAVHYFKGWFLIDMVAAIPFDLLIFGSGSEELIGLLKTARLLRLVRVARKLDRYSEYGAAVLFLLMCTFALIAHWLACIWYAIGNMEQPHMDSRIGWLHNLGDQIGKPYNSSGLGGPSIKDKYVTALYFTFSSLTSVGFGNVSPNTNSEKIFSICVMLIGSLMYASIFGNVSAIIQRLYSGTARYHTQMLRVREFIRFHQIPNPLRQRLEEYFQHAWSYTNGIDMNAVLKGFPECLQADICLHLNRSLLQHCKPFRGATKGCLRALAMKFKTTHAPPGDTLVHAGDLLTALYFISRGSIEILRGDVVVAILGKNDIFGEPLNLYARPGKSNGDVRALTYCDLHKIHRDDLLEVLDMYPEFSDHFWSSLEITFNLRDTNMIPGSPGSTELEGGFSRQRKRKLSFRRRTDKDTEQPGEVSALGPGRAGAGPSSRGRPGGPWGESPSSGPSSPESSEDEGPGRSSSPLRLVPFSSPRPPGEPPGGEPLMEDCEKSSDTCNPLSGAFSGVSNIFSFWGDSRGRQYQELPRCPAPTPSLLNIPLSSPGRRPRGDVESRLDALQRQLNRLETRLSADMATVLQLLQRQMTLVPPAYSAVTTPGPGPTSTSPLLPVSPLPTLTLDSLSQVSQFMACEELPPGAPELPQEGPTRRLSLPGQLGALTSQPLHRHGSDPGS
CYP1A2: Cytochrome P450 1A2 (CYP1A2, Homo sapiens, UniProt P05177)
UniProt P05177, sequence (whole entry, looked up): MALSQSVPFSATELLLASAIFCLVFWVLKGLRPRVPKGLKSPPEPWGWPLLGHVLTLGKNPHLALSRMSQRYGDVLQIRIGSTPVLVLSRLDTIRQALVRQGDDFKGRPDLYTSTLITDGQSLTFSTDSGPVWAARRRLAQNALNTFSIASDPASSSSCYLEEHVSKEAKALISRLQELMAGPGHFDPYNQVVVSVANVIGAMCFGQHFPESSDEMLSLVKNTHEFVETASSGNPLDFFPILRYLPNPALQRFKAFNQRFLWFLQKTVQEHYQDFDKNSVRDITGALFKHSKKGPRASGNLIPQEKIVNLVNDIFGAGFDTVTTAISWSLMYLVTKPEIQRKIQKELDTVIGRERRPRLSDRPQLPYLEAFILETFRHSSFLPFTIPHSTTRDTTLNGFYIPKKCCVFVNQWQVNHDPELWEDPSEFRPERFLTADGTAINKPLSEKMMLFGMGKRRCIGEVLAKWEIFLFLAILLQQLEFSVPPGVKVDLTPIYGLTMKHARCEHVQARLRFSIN
UniProt P46059, sequence (whole entry, looked up): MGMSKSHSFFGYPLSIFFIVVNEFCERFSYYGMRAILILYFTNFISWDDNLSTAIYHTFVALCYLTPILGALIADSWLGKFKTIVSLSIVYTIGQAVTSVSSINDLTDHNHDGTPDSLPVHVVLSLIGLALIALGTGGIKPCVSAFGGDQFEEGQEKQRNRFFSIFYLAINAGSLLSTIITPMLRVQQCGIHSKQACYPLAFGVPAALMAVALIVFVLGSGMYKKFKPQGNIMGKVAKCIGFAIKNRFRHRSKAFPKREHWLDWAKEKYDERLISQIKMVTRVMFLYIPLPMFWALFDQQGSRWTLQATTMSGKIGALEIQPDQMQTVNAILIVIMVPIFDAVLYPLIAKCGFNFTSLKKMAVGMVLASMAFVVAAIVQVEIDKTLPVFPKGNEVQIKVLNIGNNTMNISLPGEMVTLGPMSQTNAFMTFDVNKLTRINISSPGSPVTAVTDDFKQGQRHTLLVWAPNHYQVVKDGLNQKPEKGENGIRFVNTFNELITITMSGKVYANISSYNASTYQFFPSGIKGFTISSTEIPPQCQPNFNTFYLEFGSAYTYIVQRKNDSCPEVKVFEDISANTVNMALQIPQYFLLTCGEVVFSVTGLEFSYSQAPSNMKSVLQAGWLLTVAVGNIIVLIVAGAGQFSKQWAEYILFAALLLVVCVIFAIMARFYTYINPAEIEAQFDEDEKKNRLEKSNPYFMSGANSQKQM
UniProt P0CY27, sequence (whole entry, looked up): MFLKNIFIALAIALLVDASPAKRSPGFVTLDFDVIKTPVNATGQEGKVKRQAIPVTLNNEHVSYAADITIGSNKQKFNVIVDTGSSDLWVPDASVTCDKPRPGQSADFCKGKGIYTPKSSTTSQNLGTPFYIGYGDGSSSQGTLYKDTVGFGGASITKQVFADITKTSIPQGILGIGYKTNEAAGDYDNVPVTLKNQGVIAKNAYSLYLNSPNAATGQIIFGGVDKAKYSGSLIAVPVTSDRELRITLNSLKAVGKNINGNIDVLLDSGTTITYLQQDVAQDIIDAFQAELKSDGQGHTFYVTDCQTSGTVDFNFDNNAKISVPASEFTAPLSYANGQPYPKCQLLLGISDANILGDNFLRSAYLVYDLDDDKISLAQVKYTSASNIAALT

`COc1cc2nc(N3CCN(C(=O)c4ccco4)CC3)nc(N)c2cc1OC` gave an inhibition of 87.8% (SLC47A1; transport, inhibitor; transiently transfected cells; 100 µM, 10 (unit not given), together with: metformin).
Under uptake, `CN(CC(=O)O)C(=O)CN` is recorded as “decreased” (SLC15A1 (Homo sapiens, UniProt P46059); inhibitor; Caco-2; 10 mM, together with: oseltamivir).
`S=C=NCCc1ccccc1` has an inhibition of 74% (CYP2D6; enzyme activity; human liver microsomes; concentration not given, together with: dextromethorphan).
Under “inhibition of binding”, `O=C(Nc1cnccc1Cl)N1CCN(Cc2ccc3c(c2)OC(F)(F)O3)CC1` is recorded as 69% (KCNH2; radioligand binding; 50 µM, human channel, together with: [3H]astemizole).
For `O=C/C=C/c1ccccc1`, the IC50 was 21.5 ± 1.5 µg/mL (CYP1A2; inhibitor, high-throughput CYP450 kit; human).
`COc1ccc(CCC2CCCC(CCc3ccc(OC)cc3)N2C[C@@H](O)CO)cc1` (stereo in doubt) has an IC50 of 0.81 ± 0.11 µM (KCNH2; binding, radioligand displacement; HEK293 cell membranes; together with: [3H]dofetilide 5 nM).
The inhibition of `CCN(CC)CCCC(C)Nc1ccnc2cc(Cl)ccc12` (centres unmarked) is reported as 114% (SLC47A1; transport, inhibitor; transiently transfected cells; 100 µM, 10 (unit not given), together with: metformin).
For `CC(C)(O)c1ccccc1CC[C@@H](SCC1(CC(=O)O)CC1)c1cccc(/C=C/c2ccc3ccc(Cl)cc3n2)c1`, the inhibition was 25% (CYP1A2; inhibitor; human liver microsomes; 10 µM, pH 7.4, together with: phenacetin).
For `O=c1ccc2ncc(=O)n3c2n1C[C@H]3CN1CCC(NCc2cc3c(cn2)OCCC3)CC1`, the uptake ratio was 5 fold (SLC47A1; SLC47A1-overexpressing cells; relative to: control cells).
`CC(C)CC(=O)OC[C@H]1O[C@@](C#N)(c2ccc3c(N)ncnn23)[C@H](O)[C@@H]1O` has an intrinsic clearance of 0 µL/min/pmol (CYP2D6; metabolic stability; recombinant enzyme; 1 µM).
The IC50 of `CS(=O)(=O)Nc1ncn(-c2cc(F)c(COc3ccc(OS(=O)(=O)F)cc3)c(F)c2)n1` is reported as > 50 µM (CYP1A2).
`N=c1c2c(-c3ccccc3)c(-c3ccccc3)n(Cc3ccccc3)c2ncn1[C@H]1CC[C@H](O)CC1` has a remaining compound of 99.5% (CYP1A2; recombinant CYP1A2; 25 min, pH 7.4, together with: NADPH).
With `CCCC[C@H]1C(=O)N(C)[C@@H](CCCC)C(=O)N[C@@H](CCCCNC(=O)CN2CCN(CC(=O)O)CCN(CC(=O)O)CC2)C(=O)N[C@H](C(=O)NCC(N)=O)CSCC(=O)N[C@@H](Cc2ccc(O)cc2)C(=O)N(C)[C@@H](C)C(=O)N[C@@H](CC(N)=O)C(=O)N2CCC[C@H]2C(=O)N[C@@H](Cc2c[nH]cn2)C(=O)N[C@@H](CCC(=O)O)C(=O)N2C[C@H](O)C[C@H]2C(=O)N[C@@H](Cc2c[nH]c3ccccc23)C(=O)N[C@@H](CO)C(=O)N[C@@H](Cc2cn(CC(=O)O)c3ccccc23)C(=O)N1C` [gallium-68 labelled] the tumour uptake was 6.83 %ID/g (CD274 (Homo sapiens, UniProt Q9NZQ7); PET; hu-CD34+ NOG-EXL mouse, U-87 MG xenograft; baseline).
`CCOC(=O)C1=C[C@@H](OC(CC)CC)[C@H](NC(C)=O)[C@@H](N)C1` gave an inhibition of 36.5% (SLC47A1; transport, inhibitor; transiently transfected cells; 100 µM, 10 (unit not given), together with: metformin).
`CCOc1ccc2cc(-c3nn(CC4CCN(C)CC4)c4ncnc(N)c34)ccc2n1` has an EC50 of 10 µM (KCNH2; thallium flux, inhibitor).
The inhibition of `CC[C@H]1OC(=O)[C@H](C)[C@@H](O[C@H]2C[C@@](C)(OC)[C@@H](O)[C@H](C)O2)[C@H](C)[C@@H](O[C@@H]2O[C@H](C)C[C@H](N(C)C)[C@H]2O)[C@](C)(O)C[C@@H](C)CN(C)[C@H](C)[C@@H](O)[C@]1(C)O` is reported as 12.8% (SLC47A1; transport, inhibitor; 50 µM, together with: metformin).
For `CN(C(=O)n1cnc(-c2ccc[n+]([O-])c2)c1)C1CCCCC1`, “inhibition of binding” read 6% (KCNH2; radioligand binding; 10 µM, human channel, together with: [3H]astemizole).
`CCC(CC)COC(=O)[C@H](C)N[P@](=O)(OC[C@H]1O[C@@](C#N)(c2ccc3c(N)ncnn23)[C@H](O)[C@@H]1O)Oc1ccccc1` gave an inhibition of 85.8% (SLC47A1; transport, inhibitor; transiently transfected cells; 100 µM, 10 (unit not given), together with: metformin).
The equilibrium constant of `CC1(C)SC2C(NC(=O)C(NC(=O)C3=C(O)C(Cc4ccsc4)NC3=O)c3ccccc3)C(=O)N2C1C(=O)O` (centres unmarked) is reported as 9.12e+06 M⁻² (Fe(III); binding, EDTA competition absorbance; together with: EDTA 1.969 mM).
`NC(=O)c1nc(F)c[nH]c1=O` has an inhibition of 19.1% (SLC47A1; transport, inhibitor; transiently transfected cells; 100 µM, 10 (unit not given), together with: metformin).
`CC(C)[C@H](C(=O)O[C@H](C#N)c1cccc(Oc2ccccc2)c1)c1ccc(Cl)cc1` — result for “enzyme contribution to CLint”: 19.3% (human CYP2C9; IVIVE from expressed enzymes; human, liver, in vivo scaled; age-specific).
For `CN(C)C(=O)COC(=O)Cc1ccc(OC(=O)c2ccc(NC(=N)N)cc2)cc1`, the inhibition was 102% (SLC47A1; transport, inhibitor; transiently transfected cells; 100 µM, 10 (unit not given), together with: metformin).
`CC(C)=CC1C(C(=O)OC(C#N)c2cccc(Oc3ccccc3)c2)C1(C)C` (centres unmarked): “enzyme contribution to CLint” 7.39% (human CYP2C9; IVIVE from expressed enzymes; human, liver, in vivo scaled; age-specific).
`C[C@H](NC(=O)[C@H](Cc1cnc[nH]1)NC(=O)[C@H](CO)NC(=O)[C@@H](N)CC(=O)O)C(=O)N[C@@H](CCCCN)C(=O)N[C@@H](CCCNC(=N)N)C(=O)N[C@@H](Cc1cnc[nH]1)C(=O)N[C@@H](Cc1cnc[nH]1)C(=O)NCC(=O)N[C@@H](Cc1ccc(O)cc1)C(=O)N[C@@H](CCCCN)C(=O)N[C@@H](CCCNC(=N)N)C(=O)N[C@@H](CCCCN)C(=O)N[C@@H](Cc1ccccc1)C(=O)N[C@@H](Cc1cnc[nH]1)C(=O)N[C@@H](CCC(=O)O)C(=O)N[C@@H](CCCCN)C(=O)N[C@@H](Cc1cnc[nH]1)C(=O)N[C@@H](Cc1cnc[nH]1)C(=O)N[C@@H](CO)C(=O)N[C@@H](Cc1cnc[nH]1)C(=O)N[C@@H](CCCNC(=N)N)C(=O)NCC(=O)N[C@@H](Cc1ccc(O)cc1)C(=O)O`: “intact peptide remaining” 37% (Secreted aspartic protease 1 (SAP1, Candida albicans, UniProt P0CY27); proteolytic degradation, gel densitometry; 150 µg/mL, 2 h, pH 7.4, together with: SAP1 5.0 µg/mL).
`CC1(C)[C@H](C(=O)OCc2cccc(Oc3ccccc3)c2)[C@@H]1C=C(Cl)Cl` — result for “enzyme contribution to CLint”: 2.19% (human CYP2C9; IVIVE from expressed enzymes; human, liver, in vivo scaled; 0.1 µM, age-specific).
`NC(=O)c1ncn([C@@H]2O[C@H](CO)[C@@H](O)[C@H]2O)n1` has an inhibition of -4.5% (SLC47A1; transport, inhibitor; transiently transfected cells; 100 µM, 10 (unit not given), together with: metformin).
